{"data": "Results from different studies", "note": "Parts stem from different laboratories: compare values within a part only. Several values in a cell are separate wells, animals, samples, runs or records.", "chain of UniProt P04629 (whole entry, looked up)": "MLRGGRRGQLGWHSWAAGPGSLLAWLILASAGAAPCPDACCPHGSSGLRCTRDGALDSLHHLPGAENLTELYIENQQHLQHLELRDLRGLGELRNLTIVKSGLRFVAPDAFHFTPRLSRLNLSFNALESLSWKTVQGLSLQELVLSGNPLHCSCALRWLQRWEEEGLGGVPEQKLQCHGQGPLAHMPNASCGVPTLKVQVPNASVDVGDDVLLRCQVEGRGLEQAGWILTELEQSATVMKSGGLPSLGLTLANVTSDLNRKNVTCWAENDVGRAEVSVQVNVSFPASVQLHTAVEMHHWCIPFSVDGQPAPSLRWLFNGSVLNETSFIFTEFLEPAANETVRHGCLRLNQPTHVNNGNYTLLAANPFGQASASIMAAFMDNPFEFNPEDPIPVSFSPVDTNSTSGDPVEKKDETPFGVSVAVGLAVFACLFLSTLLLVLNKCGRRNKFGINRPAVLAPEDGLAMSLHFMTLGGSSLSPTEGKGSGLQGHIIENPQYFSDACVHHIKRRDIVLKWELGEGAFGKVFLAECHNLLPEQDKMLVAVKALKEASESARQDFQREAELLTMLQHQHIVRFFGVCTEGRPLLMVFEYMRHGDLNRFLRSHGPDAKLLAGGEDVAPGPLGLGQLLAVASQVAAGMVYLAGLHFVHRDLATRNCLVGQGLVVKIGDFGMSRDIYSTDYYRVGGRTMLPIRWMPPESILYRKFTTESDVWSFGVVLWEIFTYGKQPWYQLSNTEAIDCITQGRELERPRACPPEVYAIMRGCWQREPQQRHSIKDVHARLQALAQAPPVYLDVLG", "chain of UniProt P53779 (whole entry, looked up)": "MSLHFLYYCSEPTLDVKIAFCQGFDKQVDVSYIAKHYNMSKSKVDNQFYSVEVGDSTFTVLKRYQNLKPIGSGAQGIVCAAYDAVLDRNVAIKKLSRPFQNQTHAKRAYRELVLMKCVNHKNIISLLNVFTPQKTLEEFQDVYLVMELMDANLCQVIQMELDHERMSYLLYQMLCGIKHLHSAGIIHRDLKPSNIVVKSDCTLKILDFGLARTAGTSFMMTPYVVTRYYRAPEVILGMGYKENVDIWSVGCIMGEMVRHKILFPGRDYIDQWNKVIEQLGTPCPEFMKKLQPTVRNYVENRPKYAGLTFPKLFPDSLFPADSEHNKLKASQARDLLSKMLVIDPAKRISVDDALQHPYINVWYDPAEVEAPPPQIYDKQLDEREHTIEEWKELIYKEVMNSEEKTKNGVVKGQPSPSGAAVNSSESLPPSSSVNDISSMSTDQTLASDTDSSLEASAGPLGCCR", "chain of UniProt Q9NWZ3 (whole entry, looked up)": "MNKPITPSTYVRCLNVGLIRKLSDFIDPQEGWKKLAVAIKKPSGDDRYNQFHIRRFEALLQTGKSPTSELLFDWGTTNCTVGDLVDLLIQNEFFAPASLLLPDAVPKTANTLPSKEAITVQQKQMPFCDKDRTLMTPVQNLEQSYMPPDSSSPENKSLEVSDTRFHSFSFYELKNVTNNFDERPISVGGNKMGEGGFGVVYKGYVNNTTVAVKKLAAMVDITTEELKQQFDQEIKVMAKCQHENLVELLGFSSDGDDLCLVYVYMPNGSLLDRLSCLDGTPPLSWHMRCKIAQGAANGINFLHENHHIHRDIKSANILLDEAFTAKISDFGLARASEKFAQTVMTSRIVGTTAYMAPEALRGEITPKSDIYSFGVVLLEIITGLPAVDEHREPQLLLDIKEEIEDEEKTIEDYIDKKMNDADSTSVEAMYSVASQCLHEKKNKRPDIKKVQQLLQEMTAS", "chain of UniProt O14965 (whole entry, looked up)": "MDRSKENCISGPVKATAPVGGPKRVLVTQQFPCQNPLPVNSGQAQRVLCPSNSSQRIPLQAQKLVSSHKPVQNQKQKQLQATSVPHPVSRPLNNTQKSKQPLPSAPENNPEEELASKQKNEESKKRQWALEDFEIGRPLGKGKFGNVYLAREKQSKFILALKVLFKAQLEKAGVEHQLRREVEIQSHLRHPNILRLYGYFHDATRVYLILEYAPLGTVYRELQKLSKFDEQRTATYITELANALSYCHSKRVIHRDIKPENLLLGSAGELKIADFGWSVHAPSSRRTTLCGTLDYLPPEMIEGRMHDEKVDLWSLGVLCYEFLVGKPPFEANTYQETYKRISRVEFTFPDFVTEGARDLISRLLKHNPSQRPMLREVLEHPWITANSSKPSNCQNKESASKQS", "chain of UniProt Q09013 (whole entry, looked up)": "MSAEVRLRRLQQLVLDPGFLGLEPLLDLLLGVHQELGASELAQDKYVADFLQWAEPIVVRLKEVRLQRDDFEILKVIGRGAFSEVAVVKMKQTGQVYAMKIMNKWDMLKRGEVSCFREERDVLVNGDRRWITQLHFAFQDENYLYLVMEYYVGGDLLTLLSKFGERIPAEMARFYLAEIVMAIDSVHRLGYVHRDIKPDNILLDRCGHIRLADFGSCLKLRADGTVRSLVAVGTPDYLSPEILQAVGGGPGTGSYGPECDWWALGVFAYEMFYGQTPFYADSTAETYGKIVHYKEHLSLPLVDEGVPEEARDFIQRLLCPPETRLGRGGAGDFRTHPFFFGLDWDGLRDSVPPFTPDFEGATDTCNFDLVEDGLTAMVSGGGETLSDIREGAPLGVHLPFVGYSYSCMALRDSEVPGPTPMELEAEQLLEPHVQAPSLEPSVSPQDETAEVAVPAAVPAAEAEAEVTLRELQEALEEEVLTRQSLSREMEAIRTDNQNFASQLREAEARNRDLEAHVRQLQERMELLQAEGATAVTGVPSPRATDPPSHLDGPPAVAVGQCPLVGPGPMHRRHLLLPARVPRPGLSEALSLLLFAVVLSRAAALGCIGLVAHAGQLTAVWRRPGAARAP"}
{"data": "Series 1", "cell line": "HEK-293T-ACE2-TMPRSS2", "technique": "cell count", "concentration": "concentration not given"}
{"SMILES": "Cc1cc(Sc2ccc3c(c2)OCCCO3)n2ncnc2c1", "viability": "257%"}
{"SMILES": "Cc1ccc(S(=O)(=O)CCC(=O)Nc2nc(-c3nc4ccccc4s3)cs2)cc1", "viability": "77%"}
{"SMILES": "N#CCSc1ccccc1NC(=O)Cn1ncc(Cl)c(Cl)c1=O", "viability": "67%"}
{"SMILES": "CCOC(=O)C1(Cc2ccccc2C(F)(F)F)CCN(C(=O)Cc2nonc2C)CC1", "viability": "107%"}
{"SMILES": "Cn1cc(C(=O)O/N=C(\\N)c2ccc(C(C)(C)C)cc2)c(C(F)(F)F)n1", "viability": "71%"}
{"SMILES": "Cc1ccc(C(=O)N2CCN(S(=O)(=O)c3ccc4c(c3)NC(=O)C(C)O4)CC2)s1 (stereo not shown)", "viability": "76%"}
{"SMILES": "CC(=O)N[C@@H]1CN(Cc2ccc(C)o2)C[C@H]1CO", "viability": "108%"}
{"SMILES": "CCn1ccc2cc(-c3c(-c4ccccc4)ncn3CCC(N)=O)ccc21", "viability": "71%"}
{"SMILES": "COC(=O)CCS(=O)(=O)c1nc(-c2cccs2)cc(C(F)(F)F)n1", "viability": "83%"}
{"SMILES": "CCCc1cnc(-c2cc(F)ccc2C)nc1", "viability": "70%"}
{"SMILES": "COCCCN1CCn2c(nc3cc(NC(=O)NC4CCCCC4)ccc32)C1", "viability": "76%"}
{"SMILES": "CCC1Oc2ccc(S(=O)(=O)N3CCN(C(=O)c4cc5ccccc5oc4=O)CC3)cc2NC1=O (stereo not shown)", "viability": "69%"}
{"SMILES": "O=C(c1cn2cc(Cl)ccc2n1)N1CCC2(CC1)C(=O)Nc1ccccc12", "viability": "104%"}
{"SMILES": "COc1ccc(C2(C(=O)N3CCC(Cc4nc(-c5ccccc5)no4)CC3)CC2)cc1", "viability": "78%"}
{"SMILES": "Oc1c(Cl)cc(Cl)cc1C1Nc2cc(Cl)c(C(F)(F)F)cc2N1 (stereo not shown)", "viability": "65%"}
{"data": "Series 2", "SMILES": "CC(C)(O)[C@H](F)CN1Cc2cc(NC(=O)c3cnn4cccnc34)c(N3CCOCC3)cc2C1=O", "JAK2": "Tyrosine-protein kinase JAK2 (JAK2, Homo sapiens, UniProt O60674)", "JAK1": "Tyrosine-protein kinase JAK1 (JAK1, Homo sapiens, UniProt P23458)", "chain of UniProt P23458 (whole entry, looked up)": "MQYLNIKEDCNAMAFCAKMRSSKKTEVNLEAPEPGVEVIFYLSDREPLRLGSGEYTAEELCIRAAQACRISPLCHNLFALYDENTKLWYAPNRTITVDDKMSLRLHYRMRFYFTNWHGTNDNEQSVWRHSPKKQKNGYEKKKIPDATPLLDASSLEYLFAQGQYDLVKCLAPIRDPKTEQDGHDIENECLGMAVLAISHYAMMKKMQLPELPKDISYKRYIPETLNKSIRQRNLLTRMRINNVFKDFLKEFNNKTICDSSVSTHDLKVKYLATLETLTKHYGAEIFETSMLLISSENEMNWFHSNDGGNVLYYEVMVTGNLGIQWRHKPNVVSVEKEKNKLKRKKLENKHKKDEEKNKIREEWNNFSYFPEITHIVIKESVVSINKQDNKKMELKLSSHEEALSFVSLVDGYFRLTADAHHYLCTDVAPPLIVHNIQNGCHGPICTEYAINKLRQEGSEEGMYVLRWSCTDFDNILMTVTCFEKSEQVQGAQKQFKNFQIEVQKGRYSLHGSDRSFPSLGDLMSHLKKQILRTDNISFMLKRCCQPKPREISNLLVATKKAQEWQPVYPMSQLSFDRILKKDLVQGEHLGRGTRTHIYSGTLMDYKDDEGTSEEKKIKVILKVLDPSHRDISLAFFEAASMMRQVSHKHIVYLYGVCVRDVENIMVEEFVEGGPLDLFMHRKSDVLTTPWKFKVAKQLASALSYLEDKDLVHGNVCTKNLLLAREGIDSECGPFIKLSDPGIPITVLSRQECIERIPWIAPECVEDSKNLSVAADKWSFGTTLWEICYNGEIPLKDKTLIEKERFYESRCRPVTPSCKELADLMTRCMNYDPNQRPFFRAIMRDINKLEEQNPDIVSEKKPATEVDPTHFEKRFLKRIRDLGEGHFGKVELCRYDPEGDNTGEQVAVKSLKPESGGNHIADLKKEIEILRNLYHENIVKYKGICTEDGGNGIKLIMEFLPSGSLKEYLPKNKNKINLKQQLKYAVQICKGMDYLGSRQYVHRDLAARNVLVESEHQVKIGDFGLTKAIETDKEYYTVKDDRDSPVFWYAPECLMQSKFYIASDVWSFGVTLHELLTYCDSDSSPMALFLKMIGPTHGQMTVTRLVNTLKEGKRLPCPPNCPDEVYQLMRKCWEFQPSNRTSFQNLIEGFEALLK", "chain of UniProt O60674 (whole entry, looked up)": "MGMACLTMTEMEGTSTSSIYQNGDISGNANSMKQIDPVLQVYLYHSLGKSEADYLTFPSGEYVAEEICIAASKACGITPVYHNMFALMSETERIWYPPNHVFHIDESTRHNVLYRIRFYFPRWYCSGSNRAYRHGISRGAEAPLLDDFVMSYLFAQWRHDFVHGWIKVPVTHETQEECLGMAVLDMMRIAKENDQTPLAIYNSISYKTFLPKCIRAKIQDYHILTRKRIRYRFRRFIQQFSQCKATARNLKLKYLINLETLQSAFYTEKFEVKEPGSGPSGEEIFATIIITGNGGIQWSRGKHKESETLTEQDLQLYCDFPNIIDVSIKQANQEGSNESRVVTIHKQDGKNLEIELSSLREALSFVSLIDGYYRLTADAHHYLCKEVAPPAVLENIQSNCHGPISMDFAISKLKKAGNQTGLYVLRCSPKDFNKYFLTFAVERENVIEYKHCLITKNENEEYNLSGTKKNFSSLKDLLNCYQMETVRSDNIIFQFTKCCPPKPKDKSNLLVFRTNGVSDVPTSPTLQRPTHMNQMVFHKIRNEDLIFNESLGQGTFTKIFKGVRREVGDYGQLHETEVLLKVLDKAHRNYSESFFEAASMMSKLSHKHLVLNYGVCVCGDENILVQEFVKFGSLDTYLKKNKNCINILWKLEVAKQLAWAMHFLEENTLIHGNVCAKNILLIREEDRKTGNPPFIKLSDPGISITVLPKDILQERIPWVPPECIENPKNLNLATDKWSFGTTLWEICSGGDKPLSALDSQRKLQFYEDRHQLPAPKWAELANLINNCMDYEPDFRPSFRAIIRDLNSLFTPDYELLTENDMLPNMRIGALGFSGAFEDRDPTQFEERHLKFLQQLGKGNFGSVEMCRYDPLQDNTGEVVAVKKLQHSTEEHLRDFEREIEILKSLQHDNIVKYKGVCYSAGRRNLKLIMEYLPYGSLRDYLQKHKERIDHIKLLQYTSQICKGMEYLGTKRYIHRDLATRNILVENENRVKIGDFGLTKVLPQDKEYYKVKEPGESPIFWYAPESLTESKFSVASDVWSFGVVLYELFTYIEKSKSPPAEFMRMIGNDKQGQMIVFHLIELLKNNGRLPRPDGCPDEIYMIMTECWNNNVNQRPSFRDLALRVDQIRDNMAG"}
{"target": "JAK2", "observed": "target engagement", "technique": "NanoBRET", "sample": "live cells", "EC50": "> 50 µM"}
{"target": "NTRK1 (Homo sapiens, UniProt P04629)", "observed": "binding", "technique": "NanoBRET target engagement", "EC50": "12.5 µM and 8.67 µM and 12 µM"}
{"target": "JAK2", "observed": "target engagement in cells", "technique": "BRET", "EC50": "> 50 µM"}
{"target": "JAK1", "observed": "target engagement", "technique": "NanoBRET", "sample": "live cells", "EC50": "> 50 µM"}
{"target": "JAK1", "observed": "target engagement in cells", "technique": "BRET", "EC50": "> 50 µM"}
{"target": "IRAK4 (Homo sapiens, UniProt Q9NWZ3)", "observed": "target engagement", "technique": "NanoBRET", "sample": "live cells", "EC50": "0.0023 µM"}
{"data": "Series 3", "SMILES": "CCn1cnc2c(Nc3cccc(Cl)c3)nc(N[C@H]3CCCC[C@H]3N)nc21", "observed": "enzyme activity", "action": "inhibitor", "concentration": "0.5 µM", "reference": "control"}
{"target": "MAPK10 (Homo sapiens, UniProt P53779)", "remaining activity": "98.8%"}
{"target": "HIPK3 (Homo sapiens, UniProt Q9H422)", "remaining activity": "102%"}
{"target": "NEK9 (Homo sapiens, UniProt Q8TD19)", "remaining activity": "95.4%"}
{"target": "Aurora kinase A (AURKA, Homo sapiens, UniProt O14965)", "remaining activity": "105%"}
{"target": "DYRK4 (Homo sapiens, UniProt Q9NR20)", "remaining activity": "95.1%"}
{"target": "CDK7 (Homo sapiens, UniProt P50613)", "remaining activity": "58.4%"}
{"target": "ROCK2 (Homo sapiens, UniProt O75116)", "remaining activity": "90.6%"}
{"target": "PRKD1 (Homo sapiens, UniProt Q15139)", "remaining activity": "90.8%"}
{"target": "Cyclin-dependent kinase 2, with cyclin A (CDK2, Homo sapiens, UniProt P24941)", "remaining activity": "23.6%"}
{"target": "DMPK (Homo sapiens, UniProt Q09013)", "remaining activity": "99.7%"}
{"target": "RET (Homo sapiens, UniProt P07949)", "remaining activity": "69.3%"}
{"data": "Series 4", "cell line": "HEK-293T-ACE2", "concentration": "concentration not given", "reference": "vehicle"}
{"Structure (SMILES)": "Cc1nc2n(c(=O)c1CCN1CCC(c3noc4cc(F)ccc34)CC1)CCCC2", "cell number": "97.8%"}
{"Structure (SMILES)": "CNC(=C[N+](=O)[O-])NCCSCc1ccc(CN(C)C)o1", "cell number": "104%"}
{"Structure (SMILES)": "CN[C@H]1C(=O)N[C@@H]2Cc3ccc(cc3)Oc3cc4cc(c3O[C@@H]3O[C@H](C(=O)O)[C@@H](O)[C@H](O)[C@H]3NC(=O)CCCCCCCCC(C)C)Oc3ccc(cc3Cl)[C@@H](O)[C@@H]3NC(=O)[C@H](NC(=O)[C@@H]4NC(=O)[C@@H](NC2=O)c2cc(cc(O)c2Cl)Oc2cc1ccc2O)c1ccc(O)c(c1)-c1c(O[C@H]2O[C@H](CO)[C@@H](O)[C@H](O)[C@@H]2O)cc(O)cc1[C@@H](C(=O)O)NC3=O", "cell number": "81%"}
{"Structure (SMILES)": "CC(C)NCC(O)COc1ccc(COCCOC(C)C)cc1.CC(C)NCC(O)COc1ccc(COCCOC(C)C)cc1.O=C(O)/C=C/C(=O)O (racemic)", "cell number": "101%"}
{"data": "Further values, each from its own experiment"}
{"Structure (SMILES)": "Cc1cc(C)nc(N=C(N)NCCc2cnc[nH]2)n1", "host": "human", "sample": "microsomes or S9", "concentration": "2 µM", "time": "0.5 h", "endpoint": "remaining compound", "result": "> 99%"}
{"note": "A few entries again (series 1):"}
{"SMILES": "CC(=O)N[C@@H]1CN(Cc2ccc(C)o2)C[C@H]1CO", "viability": "108%"}
{"SMILES": "CCn1ccc2cc(-c3c(-c4ccccc4)ncn3CCC(N)=O)ccc21", "viability": "71%"}
{"SMILES": "COC(=O)CCS(=O)(=O)c1nc(-c2cccs2)cc(C(F)(F)F)n1", "viability": "83%"}
{"SMILES": "CCCc1cnc(-c2cc(F)ccc2C)nc1", "viability": "70%"}
{"SMILES": "COCCCN1CCn2c(nc3cc(NC(=O)NC4CCCCC4)ccc32)C1", "viability": "76%"}
